# Measured values pooled from the literature.
# Each line is one published result; not all experiments were run side by side. ± gives the spread as reported.
# B1: csoR 1-119 (Mycobacterium tuberculosis, UniProt P9WP49); chain MSKELTAKKRAALNRLKTVRGHLDGIVRMLESDAYCVDVMKQISAVQSSLERANRVMLHNHLETCFSTAVLDGHGQAAIEELIDAVKFTPALTGPHARLGGAAVGESATEEPMPDASNM
# B2: protein 16-102 (Mycobacterium tuberculosis, UniProt P96276); chain EVADGLTRREHDILAFERQWWKFAGVKEEAIKELFSMSATRYYQVLNALVDRPEALAADPMLVKRLRRLRASRQKARAARRLGFEVT
# B3: protein 16-92 (Mycobacterium tuberculosis, UniProt P96276); chain EVADGLTRREHDILAFERQWWKFAGVKEEAIKELFSMSATRYYQVLNALVDRPEALAADPMLVKRLRRLRASRQKAR
Substance,target or system,test,system,conditions,scale,endpoint,value
"cysH (Mycobacterium tuberculosis, UniProt P9WIK3)",Nc1ncnc2c1ncn2[C@@H]1O[C@H](COP(=O)(O)OS(=O)(=O)O)[C@@H](O)[C@H]1O,steady-state kinetics,,pH 7.5,,kcat,0.13 ± 0.00667 s⁻¹
"gag MA matrix protein p17, N-terminal myristoyl (Human immunodeficiency virus type 1, UniProt P12493)",,"NMR, measured: His89",,free protein,,pKa,6.5
YYQLYSTQL,,AIM,"peptide, CD8+ T cells from PBMC, human donors",dose not given,,response magnitude per positive donor,109
CC[C@H](C)[C@H](NC(=O)[C@H](CC(C)C)NC(=O)[C@H](CO)NC(=O)[C@H](Cc1c[nH]cn1)NC(=O)[C@@H](NC(=O)[C@H](CC(C)C)NC(=O)[C@H](CO)NC(=O)[C@@H](NC(=O)[C@H](Cc1ccc(O)cc1)NC(=O)[C@H](CC(N)=O)NC(=O)[C@H](CC(N)=O)NC(=O)[C@@H](NC(=O)[C@H](CCC(=O)O)NC(=O)[C@H](CCCNC(=N)N)NC(=O)[C@H](CC(=O)O)NC(=O)[C@H](Cc1c[nH]c2ccccc12)NC(=O)[C@H](CCC(=O)O)NC(=O)[C@H](CCSC)NC(=O)[C@H](Cc1c[nH]c2ccccc12)NC(C)=O)[C@@H](C)CC)[C@@H](C)O)[C@@H](C)CC)C(=O)N[C@@H](CCC(=O)O)C(=O)N[C@@H](CCC(=O)O)C(=O)N[C@@H](CO)C(=O)N[C@@H](CCC(N)=O)C(=O)N[C@@H](CC(N)=O)C(=O)N[C@@H](CCC(N)=O)C(=O)N[C@@H](CCC(N)=O)C(=O)N[C@@H](CCC(=O)O)C(=O)N[C@@H](CCCCN)C(=O)N[C@@H](CC(N)=O)C(=O)N[C@@H](CCC(=O)O)C(=O)N[C@@H](CCC(N)=O)C(=O)N[C@@H](CCC(=O)O)C(=O)N[C@@H](CC(C)C)C(=O)N[C@@H](CC(C)C)C(=O)NCC(=O)N[C@@H](CO)C(=O)NCC(=O)N[C@@H](CSCC(=O)O[C@H]1CC[C@@]2(C)C(=CC[C@H]3[C@@H]4CC[C@H]([C@H](C)CCCC(C)(C)O)[C@@]4(C)CC[C@@H]32)C1)C(N)=O,,Trp fluorescence,HIV-like lipid mixture vesicles,"5 µM, pH 7.4, 25 °C",,partition coefficient,1240 ± 297
PaFS D92A (Diaporthe amygdali),CC(C)=CCC/C(C)=C/CC/C(C)=C/CO[P@@](=O)(O)OP(=O)(O)O,steady-state kinetics,,,,kcat,1.6 ± 0.2 s⁻¹
B1 (csoR 1-119),itself,native PAGE,,,,subunits per oligomer,4
CA C-terminal domain (HIV-1),,"NMR, measured: Glu175",,"7 °C, sodium phosphate 25 mM, numbering of the source",,pKa,4.37
B2 (protein 16-102),itself,mass photometry,,,,subunits per oligomer,2
VTYVPAQEK,,AIM,"peptide, CD8+ T cells from PBMC, human donors","HLA-A*03:01 restricted, unit not given",relative to: positive over tested donors,frequency of responding donors,25
"FolB (Mycobacterium tuberculosis, UniProt P9WNC5)",Nc1nc2c(c(=O)[nH]1)N=C([C@H](O)[C@@H](O)CO)CN2,steady-state kinetics,,"pH 7, 25 °C",,kcat,0.006 ± 0.0002 s⁻¹
B3 (protein 16-92),itself,crystal structure,,,,subunits per oligomer,4
"p2o (Trametes ochracea, UniProt Q7ZA32)",Nc1ccc2nc3ccc(N)cc3[s+]c2c1,steady-state kinetics,,"pH 6.5, 22 °C, apparent",,kcat/Km,24000 M⁻¹ s⁻¹

# For quick reference, copied from above:
Substance,target or system,test,system,conditions,scale,endpoint,value
"gag MA matrix protein p17, N-terminal myristoyl (Human immunodeficiency virus type 1, UniProt P12493)",,"NMR, measured: His89",,free protein,,pKa,6.5
YYQLYSTQL,,AIM,"peptide, CD8+ T cells from PBMC, human donors",dose not given,,response magnitude per positive donor,109
